Published values of several laboratories.
Each numbered part is a random draw from the data of one study; scales do not carry over between parts.

Block 1
Target: Sal-like protein 4, full length isoform B (SALL4, Homo sapiens, UniProt Q9UJQ4-2, residues 1-616)
Technique: universal PBM
Molecule type: double-stranded DNA, one strand shown
Medium: in vitro
Tested at: not given
Setting: 8-mer, flanks averaged, mean of replicates
Reading: higher = stronger binding
Quantity: E-score
CCTATGTC: -0.00916
GTACACTA: 0.0875
CGACCTGA: -0.141
GCCATGTA: 0.0688
GATCTGGA: -0.0224
ATTCGGCC: -0.213
CAGGTCTC: -0.229
CAAGGGTG: -0.0842
ACCCGCTA: -0.0888
CGTCCCGA: -0.215
CTGGCGGC: -0.287
CTCGGCTC: -0.312
CACGGGCC: -0.417
AGGCGGAC: -0.287
CGGTCTAG: -0.216
TCAACACA: 0.165
AAAGCCGT: 0.0433
TAGTCGCA: -0.0296
TATGTAGA: 0.212
AAAGGTAG: 0.0953
AGTAGAAG: -0.0384
AAGGGGTC: -0.19
ACTTACAA: 0.336
CCTACACC: 0.0668
CAATGCCA: -0.0434

Block 2
Target: Histone acetyltransferase KAT6A, both winged helices, GST fusion (KAT6A, Homo sapiens, UniProt Q92794, residues 1-181)
Technique: protein binding microarray
Molecule type: double-stranded DNA, one strand shown
Medium: in vitro
Tested at: not given
Setting: 8-mer, flanks averaged, mean of 2 arrays, mostly near background
Reference: not given
Reading: higher = stronger binding
Quantity: E-score
Construct (chain): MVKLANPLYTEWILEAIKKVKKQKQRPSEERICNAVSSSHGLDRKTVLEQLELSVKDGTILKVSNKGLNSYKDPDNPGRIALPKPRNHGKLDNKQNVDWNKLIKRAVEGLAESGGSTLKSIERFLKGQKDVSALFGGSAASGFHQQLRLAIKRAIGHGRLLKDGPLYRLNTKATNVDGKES
GCACCACA: -0.0422
ACACCGAC: 0.193
GCCGGGTA: 0.13
CTATGCCC: -0.0946
CAGGGAAG: -0.189
AGCGTCCC: 0.0925
CATAGGGA: -0.164
CTTACCCA: -0.151
TGCGTACA: 0.0615
ACGTCGCT: 0.106
CAGCCCAC: -0.128
CTGCTATC: -0.108
CTTAGACC: -0.0504
CACTGACG: 0.0163
GCCGAACC: 0.117
CCTGCGCC: 0.122
ACATATCA: -0.0762
GTCGGTAA: 0.168
GTCACAAC: 0.0573
ACATACCT: -0.197
CTGGTCGC: 0.107

Block 3
Target: PABPC1L2, full length, GST fusion (mouse, UniProt A0ABA7IW68)
Technique: RNAcompete
Molecule type: RNA
Medium: in vitro
Tested at: 20 nM
Setting: 7-mer, probes averaged, single round
Reference: mean of 7-mers
Reading: higher = stronger binding
Quantity: 7-mer Z-score
Target sequence (chain): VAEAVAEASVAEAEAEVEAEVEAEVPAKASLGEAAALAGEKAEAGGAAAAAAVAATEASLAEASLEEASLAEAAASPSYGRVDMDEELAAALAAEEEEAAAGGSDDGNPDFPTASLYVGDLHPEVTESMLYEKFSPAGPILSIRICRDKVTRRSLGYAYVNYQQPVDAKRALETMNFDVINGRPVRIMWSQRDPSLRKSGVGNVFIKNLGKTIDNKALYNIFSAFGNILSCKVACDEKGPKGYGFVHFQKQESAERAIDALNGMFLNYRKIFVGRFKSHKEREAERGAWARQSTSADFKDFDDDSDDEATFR
AUACACC: -0.0446
AAUCUCC: -0.119
GCAGCAU: -0.0554
CGCCUGC: -0.391
UGCCCCG: -0.253
CCGACCG: -0.193
UGAAAUU: -0.0772
UCUAGGU: -0.258
CCACAAU: -0.184
CGGGCCG: -0.103
UGUCGCC: -0.505
GCCUAAU: -0.327
CCAUCCC: -0.374
AUGAAUA: 0.106
AUAAUGA: 0.0406
UCUUCCG: -0.514
AACAGCG: 0.28
CGAGGAG: -0.0863
CCAUAAC: -0.248
GAAAGCG: 0.494
UAAUUAU: -0.166
UCCGUCU: -0.367
CGUGUCU: -0.347
CCACUCC: -0.385
CAGUUCU: -0.293

Block 4
Target: Interferon regulatory factor 5, full length, phosphomimetic (IRF5, Homo sapiens, UniProt Q13568-2, residues 1-514, S451D/S453D/S456D/S462D)
Technique: protein-binding microarray
Molecule type: double-stranded DNA, one strand shown
Medium: in vitro
Tested at: 940 nM top
Setting: 60-bp whole probe
Together with: salmon DNA 0.4 mg/ml
Reference: random background probes
Reading: higher = stronger binding
Quantity: fitted relative affinity
Constant ends, left off below: GCCTAGCAC … GTCTTGATTCGCTTGACGCTGCTG
GACGGTTTCGACTATCGGAACGTGCTA: 8.52 z-score
TTCGGTCTCCTTCTCCTTTAGTGCTAG: 1.02 z-score
GACGGTATCGGGTATCGGGAGGTGCTA: 5.46 z-score
GACGAACTGACTTTCGAGACGTGCTAG: 0.909 z-score
TCAAATTTTCAATTCCTACTGTGCTAG: 0.274 z-score
CACGGTATCGACACTGGGGACGTGCTA: 3.64 z-score
TCAATGATCTTCCTTCATACTGTGCTA: 0.804 z-score
GACGGTATCAACACTGGGGACGTGCTA: 0.813 z-score
TTAGTTATCGGGTATCGGTTAGTGCTA: 3.66 z-score
GACGATATCGGGACTGAAGACGTGCTA: -0.0845 z-score
TCAACTTTCTTTACTTCACTGTGCTAG: 1.85 z-score
GAGGAACTGGGGACTGGAGACGTGCTA: -0.039 z-score
TTTACTTTCTGAATGCCCTCGTGCTAG: 2.28 z-score
GACGGTTTCCTACTGATGACGTGCTAG: 0.622 z-score
GACGGTATCGACTATCGCGACGTGCTA: 4.82 z-score
TTCGGTCTCCTACTGCTTTAGTGCTAG: 0.65 z-score
TTAGATCTCAGTCTCGATGAGTGCTAG: 2.24 z-score
TTACGTTTCGGTCTCGGTTAGTGCTAG: 10.8 z-score
GGCGATTTCAGTTCCGAGACGTGCTAG: 1.17 z-score
GCCGGACTGGACTTTCGGGACGTGCTA: 0.131 z-score
CTATCTCTGTTTTTGCTTTCGTGCTAG: 2.7 z-score
TTAGATTTCGGGTATCGTTTAGTGCTA: 2.85 z-score
TGAGGTCTCCTTCTCCTTTAGTGCTAG: 0.245 z-score
TTAGATATCGGGTTTCAATTAGTGCTA: 1.38 z-score
GACGGGTTCCTTTCCCTGACGTGCTAG: 0.216 z-score

Block 5
Target: RNA binding protein fox-1 homolog 2, RRM domain, GST-SBP tag (RBFOX2, Homo sapiens, UniProt O43251-10, residues 100-194)
Technique: RNA Bind-n-Seq
Molecule type: RNA
Medium: in vitro
Tested at: 365 nM
Setting: natural RNA segment, single round, ends assumed
Reference: no-protein control
Reading: higher = stronger binding
Quantity: RBNS enrichment (R)
Constant ends, left off below: GGGAGUUCUACAGUCCGACGAUC … UGGAAUUCUCGGGUGCCAA
Residues (chain): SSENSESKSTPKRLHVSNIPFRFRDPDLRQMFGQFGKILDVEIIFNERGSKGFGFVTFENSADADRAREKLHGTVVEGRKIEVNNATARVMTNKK
AUGUGCUCAGCUGGGGGUGUGGACAGGUAGGGGUGGGGAAAGAAGAGGCUCUGCGUUCUGGGGGCUUUUUCUUCUCCUCCCCCUACCCGGUUUCCCUCCCUGUUUUCCUA: 0.22
GAUAUACUUGUAUUUAUACCUCAGAUAUUCUUUUGGGUUUUGUACCUCAAGGCUUUUUUCUUCUUAUUGUAAAUACACUUUACGUGAAUACAGUCUAAGUGAAGAAAAUA: 0.531
GGAAUGUCGGGACCACACUGUGCGGCUUCUCGGCACAAAGCGGAGGGAGGCUGUGGUCGCUGCCGGCCUAGGUGUCCCAGGUGCCCCGCCUUUCUCUGGGACACAGUUGG: 0.394
UGCGGGAAAUUCAGUCUUGAUUUAACCUUAAUUUUACAGCCCUUGGCUUGUGUUAUCGGACAUUCUAAUGCAUAUUUAUAAGAGAAGUUUAACAAGUAUUUAUUCCCAUA: 0.632
ACCCACCUUAGGUGGAGGACUUCCCCAUGCACACCACCACCCCUCUUAGAGCACAGGCUAAGGGCCACGGCUAACAGGGACGUCCCAUUUCUUUCCUGUUCCAUCCAACU: 0.782
UUGGAAUAGCCCUGUCUAGGGCAAACUGUGGCCCCCAGGAGACACUACCCUUCCAUGCCCCAGACCUCUGUCUUGCAUGUGACAAUUGACAAUCUGGACUACCCCAAGAU: 15.2
CAGGUACCCGUGGCUGAGCUGAGCUUCCUCUGCUUUCCCUAGGCCUGGCCUCUGCAGGGAACUGCAGCACACACUGCACUCCCACCUGCUCUUGCCGCCAGCAUUGCACC: 0.435
AAAAAAAAAGUUCAAGAUAAUUAAGAGUUGCCAGCUCGUUAAAGCUAAGUAGAAGCAGUCUCAGGCCUGCUGCUUGAGGCUGUUCUUGGCUUGGACCUGAAAUCUGCCCC: 0.459
CAUUCUCUUUUGUUUGCAAAUUGGUCAACAAAAUUUGCAAAGUGAUUUCAGGAGAGAGCAGCUUUGAGGAAUGUGGAAAAUCAUAAUUGCCGUCUGGACCAUUGAUUGAU: 0.507
AAAGAGAAAAAUGAAAAACUCAUAGUUUGGAGCCAGGAGGCAGGGUGUCCUACAGGGCUGCACAGCCCUGAGGGGUCAGUGCUGGGAUCUGGUUGGUUGGUUUGUCUUUU: 0.425
CGCAGGGAAGACCUGUGGCUAGGAGCAGGCUUUCAGCUGACAUGAAGAUGGCCCCCGCACAGCCUUCAUCUCAUCCUGUGGGACUCUGACGUCACAGAACACCCAGGAAA: 0.314
AUGGCUGUUCGAGAGAAAUCGGAAUAAAAGCCUAAACAGGAACAACUUCAUCACAGUGUUGAUGUUGGACACAUAGAUGGUGAUGGCAAAGGUUUAGAACACAUUAUUUU: 0.508

Repeated from above (block 1):
AGGCGGAC: -0.287
CGGTCTAG: -0.216
TCAACACA: 0.165
AAAGCCGT: 0.0433
TAGTCGCA: -0.0296
TATGTAGA: 0.212
